{"data": "Experimental data of several laboratories", "note": "Protocols differ between the studies behind these lines. Several values in a cell are separate wells, animals, samples, runs or records. ± gives the spread as reported.", "chain of UniProt Q16774 (whole entry, looked up)": "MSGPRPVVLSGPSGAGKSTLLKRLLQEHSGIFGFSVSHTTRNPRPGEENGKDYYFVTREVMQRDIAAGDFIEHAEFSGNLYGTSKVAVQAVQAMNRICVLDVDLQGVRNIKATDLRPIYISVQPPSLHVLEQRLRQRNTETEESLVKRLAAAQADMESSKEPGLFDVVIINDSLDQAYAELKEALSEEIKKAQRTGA", "chain of UniProt P51575 (whole entry, unmodified, looked up)": "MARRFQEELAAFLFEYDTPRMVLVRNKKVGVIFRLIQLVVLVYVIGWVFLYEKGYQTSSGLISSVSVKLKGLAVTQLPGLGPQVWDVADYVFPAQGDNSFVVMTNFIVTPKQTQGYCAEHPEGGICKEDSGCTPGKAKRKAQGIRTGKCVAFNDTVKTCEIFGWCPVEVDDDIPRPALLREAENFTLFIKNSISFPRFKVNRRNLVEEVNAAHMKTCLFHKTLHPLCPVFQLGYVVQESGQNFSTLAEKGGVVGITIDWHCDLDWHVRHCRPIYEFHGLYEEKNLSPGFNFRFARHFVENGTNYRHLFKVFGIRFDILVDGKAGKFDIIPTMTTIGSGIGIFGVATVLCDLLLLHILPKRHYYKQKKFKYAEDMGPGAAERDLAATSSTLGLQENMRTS"}
{"SMILES": "CC(C)C[C@H](NC(=O)C[C@H](O)[C@H](CC(C)C)NC(=O)[C@H](Cc1c[nH]cn1)NC(=O)CNC(=O)[C@@H](NC(=O)[C@H](C)NC(=O)[C@H](Cc1c[nH]c2ccccc12)NC(=O)[C@H](CCC(N)=O)NC(=O)[C@@H](Cc1ccccc1)NC(=O)COCCOCCNC(=O)CCC(C(=O)O)N1CCN(CC(=O)O)CCN(CC(=O)O)CCN(CC(=O)O)CC1)C(C)C)C(N)=O (stereo partly shown) [lutetium-177 labelled]", "test system": "female BALB/c nu/nu mice, lung", "setting": "intravenous, 100 pmol, 4 h, together with: PA 300 µg", "quantity": "tissue uptake", "value": "0.2 ± 0.2 %ID/g"}
{"SMILES": "O=C(O)CNC(=O)Cc1ccccc1", "test system": "ventricular cardiomyocytes, C57BL/6 mouse", "setting": "dose not given, 0.424 s", "quantity": "sarcomere length", "value": "1.72 µm"}
{"SMILES": "CCS(=O)(=O)c1nc(C2CC2)cc(C(F)(F)F)n1", "tested on": "transportin-1/2", "test": "FUS nuclear import, high content imaging", "test system": "HeLa Kyoto reporter", "setting": "1.58 µM, 2 h", "quantity": "cells with nuclear reporter", "value": "93.5% and 94.9%"}
{"SMILES": "Nc1nc2c(ncn2[C@@H]2O[C@H](COP(=O)(O)O)[C@@H](O)[C@H]2O)c(=O)[nH]1", "tested on": "GUK1 (Homo sapiens, UniProt Q16774)", "test": "enzyme activity, NADH-coupled", "setting": "250 µM, together with: NaCl 150 mM", "quantity": "reaction velocity", "value": "0.0745 µM/s and 0.0744 µM/s and 0.0702 µM/s"}
{"SMILES": "N[C@@H](Cc1ccccc1)C(=O)O", "test": "binding, MIDAS equilibrium dialysis LC-MS", "test system": "A2AR-BRIL thermostabilized", "setting": "concentration not given", "scale": "baseline: no-protein control", "quantity": "log2 fold change", "value": -0.142}
{"SMILES": "CN1CCC(c2cc(-c3ccncc3)c(-c3ccc(F)cc3)[nH]2)CC1", "tested on": "Plasmodium falciparum", "test": "nanoluciferase", "test system": "3D7 Hyp1-Nluc", "setting": "2 µM, 72 h", "scale": "baseline: DMSO", "quantity": "parasite growth", "value": "96.8%"}
{"SMILES": "CSc1cc(Oc2ccnc3[nH]c(=O)cnc23)ccc1NC(=O)Nc1cc(C(C)(C)C)nn1-c1ccccc1", "tested on": "patient-derived cell line", "test": "RPPA, refers to: phosphorylated Rb", "test system": "human", "setting": "1 µM, 4 h", "scale": "baseline: DMSO", "quantity": "phospho ratio", "value": 0.6}
{"SMILES": "Nc1ncnc2c1ncn2[C@@H]1O[C@H](COP(=O)(O)CP(=O)(O)OP(=O)(O)O)[C@@H](O)[C@H]1O", "tested on": "P2X purinoceptor 1 (P2RX1, Homo sapiens, UniProt P51575, D97A)", "test": "saturation binding", "setting": "103 nM", "quantity": "specific binding", "value": "8460 corrected cpm and 4490 corrected cpm"}
{"SMILES": "Cc1c(-c2ccc(N3CCc4cccc(C(=O)Nc5nc6ccccc6s5)c4C3)nc2C(=O)O)cnn1CC12CC3(C)CC(C)(C1)CC(OCCNCC[C@H](O)CO)(C3)C2", "test system": "anaesthetized male beagle dog", "setting": "iv infusion, 0.3 mg/kg/min, 60 min", "quantity": "plasma concentration", "value": "5.35 ng/mL and 3.34 ng/mL"}
{"SMILES": "CCc1cc(C(=O)NC)c2nccc(N3CCc4c(cc(Cn5ccnc5)cc4-c4cn(C)nc4C(F)(F)F)C3=O)c2c1", "test system": "Sprague Dawley rats", "setting": "oral, 100 mg/kg once daily, 7 days", "quantity": "serum CREA level", "value": "47.7 ± 2.86 µmol/L"}
{"SMILES": "COc1cnc2cccc(N3CCc4c(cc(Cn5ccnc5C)cc4-c4cn(C)nc4C(F)(F)F)C3=O)c2c1", "tested on": "HEL 92.1.7", "test": "cell growth", "setting": "120 h", "quantity": "EC50", "value": "> 30 µM"}
{"SMILES": "O=C(O)Cc1cc(O)ccc1O", "test": "binding, MIDAS equilibrium dialysis LC-MS", "test system": "A2AR-BRIL thermostabilized", "setting": "concentration not given", "scale": "baseline: no-protein control", "quantity": "log2 fold change", "value": -1.42}
{"SMILES": "Cn1cc(-c2ccc(-c3cncc(Cl)c3N3CCC4(CCNC4=O)CC3)cc2)cn1", "tested on": "COLO 205", "test": "gene expression, microarray, refers to: OAS2 mRNA", "setting": "concentration not given, 6 h", "scale": "baseline: untreated cells", "quantity": "log2 fold change", "value": 2.45}
{"SMILES": "CCn1cc(-c2cc(Cn3ccnc3)cc3c2CCN([C@H](c2cc(OC)ccn2)C2CC2)C3=O)c(C(F)(F)F)n1", "tested on": "SHP77", "test": "cell growth, inhibitor", "setting": "120 h", "quantity": "EC50", "value": "> 30 µM"}
{"SMILES": "COc1ccc2[nH]cc(CC(=O)O)c2c1", "test": "binding, MIDAS equilibrium dialysis LC-MS", "test system": "A2AR-BRIL thermostabilized", "setting": "concentration not given", "scale": "baseline: no-protein control", "quantity": "log2 fold change", "value": -0.175}
{"SMILES": "OC(CCN1CCCCC1)(c1ccccc1)C1CC2C=CC1C2 (stereo not shown)", "test": "resting-state EEG", "test system": "healthy elderly humans", "setting": "oral, 2 mg, eyes closed, LS mean", "scale": "baseline: baseline", "quantity": "change in EEG Alpha2-power Pz-O1", "value": "28.5%"}
{"SMILES": "CCn1cc(-c2cc(Cn3ccoc3=N)cc3c2CCN([C@@H](C)c2cc(OC)ccn2)C3=O)c(C(F)(F)F)n1", "tested on": "HT55", "test": "cell growth, inhibitor", "setting": "120 h", "quantity": "EC50", "value": "0.15 µM"}
{"SMILES": "CC[S+]([O-])c1nc(-c2ccccc2)cc(C(F)(F)F)n1 (stereo not shown)", "tested on": "transportin-1/2", "test": "FUS nuclear import, high content imaging", "test system": "HeLa Kyoto reporter", "setting": "5 µM, 2 h", "quantity": "cells with nuclear reporter", "value": "95.7% and 94.1%"}
{"SMILES": "CC(O)(CC(=O)O)CC(=O)O", "test": "binding, MIDAS equilibrium dialysis LC-MS", "test system": "A2AR-BRIL thermostabilized", "setting": "concentration not given", "scale": "baseline: no-protein control", "quantity": "log2 fold change", "value": -0.052}
{"SMILES": "N#Cc1ccc2c(c1)[C@H]1CCCN(C(=O)c3ccc4[nH]cnc4c3)[C@H]1C2", "test system": "human, plasma", "setting": "360 mg, day 15", "quantity": "fasting plasma glucose", "value": "161 mg/dL"}
{"SMILES": "NC1CCCNC1=O (stereo not shown)", "test": "binding, MIDAS equilibrium dialysis LC-MS", "test system": "A2AR-BRIL thermostabilized", "setting": "concentration not given", "scale": "baseline: no-protein control", "quantity": "log2 fold change", "value": -0.097}
{"SMILES": "CNCCOC12CC3(C)CC(C)(CC(Cn4ncc(-c5ccc(N6CCc7cccc(C(=O)Nc8nc9ccccc9s8)c7C6)nc5C(=O)O)c4C)(C3)C1)C2", "test system": "anaesthetised male beagle dogs", "setting": "intravenous bolus, 0.03 mg/kg, 90 min", "scale": "baseline: baseline", "quantity": "systemic vascular resistance change", "value": "38%"}
{"note": "A few entries again:"}
{"SMILES": "Cn1cc(-c2ccc(-c3cncc(Cl)c3N3CCC4(CCNC4=O)CC3)cc2)cn1", "tested on": "COLO 205", "test": "gene expression, microarray, refers to: OAS2 mRNA", "setting": "concentration not given, 6 h", "scale": "baseline: untreated cells", "quantity": "log2 fold change", "value": 2.45}
{"SMILES": "CCn1cc(-c2cc(Cn3ccnc3)cc3c2CCN([C@H](c2cc(OC)ccn2)C2CC2)C3=O)c(C(F)(F)F)n1", "tested on": "SHP77", "test": "cell growth, inhibitor", "setting": "120 h", "quantity": "EC50", "value": "> 30 µM"}
{"SMILES": "COc1ccc2[nH]cc(CC(=O)O)c2c1", "test": "binding, MIDAS equilibrium dialysis LC-MS", "test system": "A2AR-BRIL thermostabilized", "setting": "concentration not given", "scale": "baseline: no-protein control", "quantity": "log2 fold change", "value": -0.175}
